Measured values gathered from unrelated publications.
Compare with care: the assays were run in different laboratories. ± gives the spread as reported.
ALB: Albumin (ALB, Homo sapiens, UniProt P02768)
ESR1: Estrogen receptor (ESR1, Homo sapiens, UniProt P03372)
ABO G235S/G268A/L266M/R176G: Histo-blood group ABO system transferase (ABO, Homo sapiens, UniProt P16442, G235S/G268A/L266M/R176G)
T1: DNA aptamer; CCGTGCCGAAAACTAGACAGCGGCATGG

CNc1ccccc1C(=O)O[C@H]1C[C@H](n2cnc3c(N)ncnc32)O[C@@H]1COP(=O)(O)OP(=O)(O)O — dissociation rate, fast phase (Unconventional myosin-Va (Gallus gallus, UniProt Q02440, D297C/G292C/I296C/S293C/V295G); stopped-flow FRET; together with: 4 mM EDTA; reference: with Mg): ~10 fold
CSCC[C@H](NC(=O)[C@H](CO)NC(=O)[C@@H](NC(=O)[C@H](CCC(N)=O)NC(=O)[C@@H](CCCNC(=N)N)NC(=O)[C@@H](CCCNC(=N)N)NC(=O)[C@@H](CCCCN)NC(=O)[C@@H](CCCNC(=N)N)NC(C)=O)[C@@H](C)O)C(=O)N[C@H](C(=O)N[C@@H](CC(=O)O)C(=O)N[C@@H](Cc1ccccc1)C(=O)N[C@@H](Cc1ccc(O)cc1)C(=O)N[C@@H](Cc1c[nH]cn1)C(=O)N[C@@H](CO)C(=O)N[C@H](CCCCN)C(=O)N[C@H](CCCNC(=N)N)C(=O)N[C@H](CCCNC(=N)N)C(N)=O)[C@@H](C)O — binding enthalpy ΔH (PCNA (Homo sapiens, UniProt P12004); isothermal titration calorimetry; concentration not given, pH 7.4, 25 °C, 400 mM NaCl, together with: p21 peptide): -21.3 ± 0.478 kcal/mol
O=S([O-])c1ccccc1N=Cc1ccccc1[O-].[Cu+2].c1c[nH]cn1 — donor-acceptor distance (ALB; FRET; 4 µM): 2.75 nm
CC1=C(/C=C/C(=O)N2CCN(C(N)=O)CC2)C(C)(C)CCC1 — plasma membrane association (Rhodopsin (RHO, Homo sapiens, UniProt P08100, T17M); pharmacological chaperone, confocal microscopy; T-REx-293 expressing T17M opsin; concentration not given; reference: DMSO): increased
C[C@H](Cn1cnc2c(N)ncnc21)OCP(=O)(O)O — Kd (T1, DNA aptamer; interferometric free solution assay; 2 h, 22 °C, NaCl 150 mM, single-site fit): 4.88 nM
CN1CCN(CC(=O)N2N=C3/C(=C/c4ccccc4)CCCC3C2c2ccccc2)CC1 (mixture of isomers) — enzyme activity (ALOX5 (Homo sapiens, UniProt P09917); activator; 10 µM, together with: arachidonic acid 10 µM; reference: activator 0 µM): 78%
CCNC(=O)[C@H]1O[C@@H](n2cnc3c(NCCOCCOCCNC(=O)CCCCCNC(=O)COc4ccc(/C=C/C5=[N+]6C(=Cc7ccc(-c8cccs8)n7[B-]6(F)F)C=C5)cc4)ncnc32)[C@H](O)[C@@H]1O — maximal inhibition (ADORA1 (Homo sapiens, UniProt P30542); radioligand binding, whole-cell binding; CHO-A1; 2 h, together with: [3H]DPCPX; reference: specific binding, 10 µM XAC): 24.3 ± 4.8%
Nc1c2ncn3c2nc[n+]1[C@@H]1O[C@H](COP(=O)(O)OP(=O)([O-])OC[C@H]2O[C@@H]3[C@@H](O)[C@@H]2O)[C@@H](O)[C@H]1O — activity (cADPR receptor, sea urchin; Ca2+ release; sea urchin egg homogenate; concentration not given): inactive
O=C1CCC(N2C(=O)c3ccc(N4CCC(C(=O)N5CCC(CCN6CCC(CNC(=O)c7cccc(-c8noc(C(F)(F)F)n8)c7)(c7nc(-c8ccccc8)cs7)CC6)CC5)CC4)cc3C2=O)C(=O)N1 (stereo not drawn) — maximum degradation (HDAC7 (Homo sapiens, UniProt Q8WUI4); degrader, Western blot; NB-4; 3 µM, 12 h): > 90%
CCCCCC(C)NCC(=O)O (stereo not drawn) — β-sheet content (ALB; circular dichroism; 0.6 mM): 5.2%
CC(CCC(=O)NC(CCC(=O)Nc1cccnc1F)C(=O)O)C1CCC2C3C(O)CC4CC(O)CCC4(C)C3CCC12C (stereo not drawn) — Ki over Kt (SLC10A2 (Homo sapiens, UniProt Q12908); transport; MDCK expressing ASBT; reference: Ki over Kt): > 7 fold
CC(=O)N(Cc1ccccc1)[C@@H](C)C(=O)N(C)[C@@H](C)C(=O)N(Cc1c[nH]c2cc(Cl)ccc12)[C@@H](C)C(=O)N(C)[C@@H](C)C(=O)N(CCC(C)(C)C)[C@@H](C)C(=O)N1CCNCC1 — kon (E3 ubiquitin-protein ligase Mdm2, N-terminal domain 17-125 (MDM2, Homo sapiens, UniProt Q00987); binding, SPR; PBS with Tween; 10 °C, immobilised peptoid): 6.9e+06 M⁻¹ s⁻¹
N[C@@H](Cc1ccc(O)c(I)c1)C(=O)O — Kd ratio, M41F over wild type (Iodotyrosine deiodinase (IYD, Thermotoga neapolitana, UniProt B9K712, M41F); binding, FMN fluorescence quenching; 25 °C): 10 fold
CC(C)C(=O)NC1CC=C(c2cc3c(Nc4cc5ncsc5cc4F)ncnc3s2)CC1 (racemic) — remaining activity (RIPK1 (Homo sapiens, UniProt Q13546); enzyme activity; 1 µM; reference: untreated): 99 ± 2%
CC(C)C[C@H](NC(=O)CNC(=O)[C@H](CC(C)C)NC(=O)[C@H](CCCCN)NC(=O)[C@H](CO)NC(=O)[C@H](C)NC(=O)[C@H](CCCNC(=N)N)NC(=O)[C@H](Cc1ccc(O)cc1)NC(=O)[C@H](CCCCN)NC(=O)[C@H](CCCCN)NC(=O)CNC(=O)[C@H](Cc1c[nH]c2ccccc12)NC(=O)[C@@H](N)Cc1c[nH]c2ccccc12)C(=O)N[C@@H](C)C(=O)N[C@@H](CCCNC(=N)N)C(=O)O — Emax (C3AR1 (Homo sapiens, UniProt Q16581); β-arrestin 1/2 recruitment, agonist, NanoBiT; reference: C3a maximum): 55 to 65%
C=CCC1NC(=O)C=CC(=O)NC(C(N)=O)CCNC(=O)C(CCCNC(=O)c2cnccn2)NC(=O)C(Cc2ccco2)NC1=O (stereo not drawn) — enrichment factor (MAPKAPK2 (Homo sapiens, UniProt P49137); DNA-templated library selection; one selection round): 1.2
CCC(=C(c1ccc(Cl)cc1)c1ccc(OCCCN(C)C)cc1)c1ccc(OC)cc1 — fold activation (ESR1; reporter gene, agonist, yeast estrogen screen; 1 µM; reference: DMSO): 3.32 ± 0.29 fold
CCCCCCCCCCCCN — tryptophan fluorescence quenching (Ephx2 (Mus musculus, UniProt P34914); fluorescence; 5 mM; negative is enhancement): 0 ± 15%
CC/C(=C(\c1ccc(O)cc1)c1ccc(OCCN(C)CCOCCOCCOCCN(C)CCOc2ccc(/C(=C(/CC)c3ccccc3)c3ccc(O)cc3)cc2)cc1)c1ccccc1 — relative binding affinity (ESR2 (Homo sapiens, UniProt Q92731); radioligand competition binding; concentration not given, Z-Z/Z isomer form, together with: [3H]estradiol tracer; reference: estradiol): 13.9%
CC(=O)N[C@H]1[C@@H](OP(=O)(O)OP(=O)(O)OC[C@H]2O[C@@H](n3ccc(=O)[nH]c3=O)[C@H](O)[C@@H]2O)O[C@H](CO)[C@@H](O)[C@@H]1O — kon (ABO G235S/G268A/L266M/R176G; binding, NMR): 190000 M⁻¹ s⁻¹
CC(C=CC=CC=CC1=C(C)CCCC1(C)C)=CCO — cell surface expression (Rhodopsin (RHO, Homo sapiens, UniProt P08100, T289P); pharmacological chaperone, immunostaining, nonpermeabilized cells; 661W; 2.5 µM, 16 h; reference: untreated cells): ~2 fold
Cc1ccc(C(=O)Nc2ccc(CP(=O)(O)O)cc2CP(=O)(O)O)cc1NC(=O)c1cccc(NC(=O)Nc2cccc(C(=O)Nc3cc(C(=O)Nc4ccc(CP(=O)(O)O)cc4CP(=O)(O)O)ccc3C)c2)c1 — Vmax (F11 (Homo sapiens, UniProt P03951); enzyme activity, inhibitor; 10 µM, together with: S-2366 substrate): 91.8 ± 3.4 mAU/min
Cn1c(=S)c2[nH]c(SCCc3ccccc3)nc2n(C)c1=O — reporter activity (ESR1; reporter gene, ERE luciferase; T47D-KBluc; 10 µM, 24 h, together with: estradiol 5 nM; reference: maximal luciferase activity): 33%
CCCCOc1ccc(C(=O)OCC[N+]2(C)CC=CCC2)cc1 (stereo not drawn) — dissociation half-time (CHRM3 (Homo sapiens, UniProt P20309); recovery of [3H]NMS binding after washing; membranes; 100 µM): 0.4 ± 0.1 h
C=CCCCCCCO[C@@H]1O[C@H](CO)[C@@H](O[C@@H]2O[C@H](CO)[C@H](O)[C@H](O)[C@H]2O[C@@H]2O[C@@H](C)[C@@H](O)[C@@H](O)[C@@H]2O)[C@H](O)[C@H]1NC(C)=O — kon (ABO G235S/G268A/L266M/R176G; methyl-TROSY NMR titration lineshape analysis; apo enzyme): 720000 M⁻¹ s⁻¹
CSCC[C@H](NC(=O)[C@H](Cc1c[nH]c2ccccc12)NC(=O)[C@@H](NC(=O)[C@@H](NC(=O)[C@@H](NC(=O)[C@H](C)NC(=O)[C@@H](NC(=O)[C@H](C)NC(=O)[C@H](CCCCN)NC(=O)[C@H](CCCCN)NC(=O)[C@@H](NC(=O)[C@H](CC(N)=O)NC(=O)[C@H](CCC(=O)O)NC(=O)[C@@H](N)CCSC)C(C)C)[C@@H](C)O)[C@@H](C)O)[C@@H](C)O)[C@@H](C)O)C(=O)N[C@H](C(=O)N1CCC[C@H]1C(=O)N[C@H](C(=O)N[C@@H](C)C(=O)N[C@@H](C)C(=O)O)[C@@H](C)O)C(C)C — ΔG° (Recombining binding protein suppressor of hairless (Rbpj, Mus musculus, UniProt P31266); isothermal titration calorimetry; pH 6.5, 25 °C): -8.3 ± 0.3 kcal/mol
CNC(=O)c1ccccc1Oc1nc(Nc2cc(OC)c(OC)c(OC)c2)ncc1Br — IC50 fold change (PRKAA1 (Homo sapiens, UniProt Q13131, M104T); inhibitor; reference: wild type): ~20 fold

Repeated from above:
CC(C=CC=CC=CC1=C(C)CCCC1(C)C)=CCO — cell surface expression (Rhodopsin (RHO, Homo sapiens, UniProt P08100, T289P); pharmacological chaperone, immunostaining, nonpermeabilized cells; 661W; 2.5 µM, 16 h; reference: untreated cells): ~2 fold
CCC(=C(c1ccc(Cl)cc1)c1ccc(OCCCN(C)C)cc1)c1ccc(OC)cc1 — fold activation (ESR1; reporter gene, agonist, yeast estrogen screen; 1 µM; reference: DMSO): 3.32 ± 0.29 fold
CC(CCC(=O)NC(CCC(=O)Nc1cccnc1F)C(=O)O)C1CCC2C3C(O)CC4CC(O)CCC4(C)C3CCC12C (stereo not drawn) — Ki over Kt (SLC10A2 (Homo sapiens, UniProt Q12908); transport; MDCK expressing ASBT; reference: Ki over Kt): > 7 fold
